Measurements gathered from unrelated publications.
Every numbered part comes from another study and shows a few of its results, in no order. Changes are numbered by the printed parent chain.

Block 1
Target: Histone acetyltransferase KAT6A, winged helix 1, GST fusion (KAT6A, Homo sapiens, UniProt Q92794, residues 1-85)
Technique: protein binding microarray
Molecule type: double-stranded DNA, one strand shown
Sample: in vitro
Tested at: not given
Notes: 8-mer, flanks averaged, mean of 2 arrays, mostly near background
Relative to: not given
Direction: higher = stronger binding
Residues (chain): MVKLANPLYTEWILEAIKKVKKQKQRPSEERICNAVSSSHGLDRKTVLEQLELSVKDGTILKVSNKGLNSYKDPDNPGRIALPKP
Strand	E-score
CAGGAAAG	-0.0437
GATTGGGC	-0.0444
GACATACC	0.0633
AATTTCCG	0.197
CTACGTGC	0.00666
ACGAGCGT	0.0704
GTTTCAGA	-0.0118
ACCCCAGG	-0.0295
AATCAAAC	-0.14
ACGTTAAG	-0.0482
CAGAAGGA	-0.13
AACATGCC	0.217
GCTATCCC	-3.5e-05
CGTAAGCC	0.153
AGCGTATC	0.222
AGCATGCG	0.0962
AAACCCAT	-0.143
ACCAATTA	-0.166
ATGGATTG	-0.134
ACCATGGG	-0.0162
ACGTCAAT	-0.00699
CGTAGGCA	0.0517
ACTGCCTC	0.0496
AGGCCCGC	0.349

Block 2
Target: ABI1, truncated, D143A, DHFR fusion (Arabidopsis thaliana)
Technique: DHFR PCA, deep sequencing
Sample: yeast
Notes: methotrexate growth selection, single substitutions
Together with: (+)-ABA 0.032 µM
Relative to: wild-type fitted maximum
Direction: higher = stronger binding
Starting sequence: PYL1, truncated, DHFR fusion (Arabidopsis thaliana); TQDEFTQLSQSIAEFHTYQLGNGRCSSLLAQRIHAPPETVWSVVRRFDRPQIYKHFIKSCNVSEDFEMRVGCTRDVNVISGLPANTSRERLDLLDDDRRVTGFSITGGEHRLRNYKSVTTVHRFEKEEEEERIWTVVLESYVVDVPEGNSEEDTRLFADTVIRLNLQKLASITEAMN; partner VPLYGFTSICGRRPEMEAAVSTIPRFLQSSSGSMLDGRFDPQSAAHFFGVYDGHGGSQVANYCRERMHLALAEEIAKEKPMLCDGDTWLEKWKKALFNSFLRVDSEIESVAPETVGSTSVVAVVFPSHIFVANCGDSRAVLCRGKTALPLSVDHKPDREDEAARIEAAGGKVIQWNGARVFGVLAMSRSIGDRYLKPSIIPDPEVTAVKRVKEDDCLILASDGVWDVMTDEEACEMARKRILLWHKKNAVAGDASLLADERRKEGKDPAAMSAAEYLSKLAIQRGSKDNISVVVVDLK
Change	relative binding score [%]
T160A	8.26
H110C	27.5
L156R	0.734
V145S	-13.1
F103D	4.99
V161S	6.99
L156Q	6.91
V100Q	2.62
A170D	3.38
F124Y	15.9

Block 3
Target: CCND1, cyclin fold, Cln2 fusion (human)
Technique: yeast growth competition, sequencing
Sample: yeast
Notes: weak parent motif
Relative to: not given
Direction: higher = stronger binding
Starting sequence: SLBP docking peptide (human); ARYKRKLLINDFG
Change	normalised enrichment score
ARYKRKLLIEDFG [N10E]	0.504
ARYKRKLLSNDFG [I9S]	0.499
PRYKRKLLINDFG [A1P]	0.0834
ARYKRYLLINDFG [K6Y]	0.142
ARYKRKLLENDFG [I9E]	0.218
ARYKRKLLINDWG [F12W]	-0.44
ARYKFKLLINDFG [R5F]	0.311
AHYKRKLLINDFG [R2H]	0.199
ARYKRKILINDFG [L7I]	-0.847
AMYKRKLLINDFG [R2M]	0.0714
ARYKRKLLIDDFG [N10D]	0.152
ARYKRKLMINDFG [L8M]	0.426
ARMKRKLLINDFG [Y3M]	0.21
ARYKRKLLINGFG [D11G]	0.44
ARYKRKLLINDHG [F12H]	-0.496
ARYKRKLLINDFS [G13S]	-0.656

Block 4
Target: CDC34 UBC core domain (UniProt P49427)
Technique: yeast two-hybrid
Sample: yeast
Notes: mostly zero background
Relative to: not given
Direction: higher = stronger interaction
B1: RNF31 RING domain (UniProt Q96EP0); chain AFLRRLLAQECAVCGWALPHNRMQALTSCECTICPDCFRQHFTIALKEKHITDMVCPACGRPDLTDDTQLL
B2: MEX3B RING domain (UniProt Q6ZN04); chain SGLRRKGSRDCSVCFESEVIAALVPCGHNLFCMECANRICEKSEPECPVCHTAVTQAIRIF
B3: MKRN2 RING domain (UniProt Q9H000); chain FAFQASQDKVCSICMEVILEKASASERRFGILSNCNHTYCLSCIRQWRCAKQFENPIIKSCPECRVISEFVIPSV
B4: MYCBP2 RING domain (UniProt O75592); chain TSLKQDADDMCMICFTEALSAAPAIQLDCSHIFHLQCCRRVLENRWLGPRITFGFISCPICKNKINHIVLKD
B5: DEF8 RING domain (UniProt Q6ZN54); chain AGRLGCSLTEIHTLFAKHIKLDCERCQAKGFVCELCREGDVLFPFDSHTSVCADCSAVFHRDCYYDNSTTCPKCARLSLRK
Residues (chain): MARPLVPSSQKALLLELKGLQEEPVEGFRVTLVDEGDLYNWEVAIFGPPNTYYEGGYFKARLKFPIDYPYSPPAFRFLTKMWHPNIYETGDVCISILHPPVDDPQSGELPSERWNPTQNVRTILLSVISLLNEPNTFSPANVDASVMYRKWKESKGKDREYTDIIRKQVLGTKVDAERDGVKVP
Sequence	lacZ reporter activity
B1 (RNF31 RING domain)	0
RYRQMEERITCPICIDSHIRLVFQCGHGACAPCGSALSACPICRQPIRDRIQIF (MIB2 RING domain (UniProt Q96AX9))	0
B2 (MEX3B RING domain)	0
B3 (MKRN2 RING domain)	0
B4 (MYCBP2 RING domain)	0
B5 (DEF8 RING domain)	0
YPEEVDDDLICHICLQALLDPLDTPCGHTYCTLCLTNFLVEKDFCPMDRKPLVLQHCKK (LNX1 RING domain (UniProt Q8TBB1))	0

Block 5
Target: Fragile X messenger ribonucleoprotein 1, C-terminal low-complexity region (Fmr1, Mus musculus, UniProt P35922)
Technique: RNA Bind-n-Seq
Molecule type: RNA
Sample: in vitro
Tested at: 200 nM
Notes: whole 134-nt RNA, ends assumed
Together with: 150 mM KCl
Relative to: input library
Direction: higher = stronger binding
All sequences stand within: GGGAGUUCUACAGUCCGACGAUC … UGGAAUUCUCGGGUGUCAAGG
Strand	log2 enrichment
GUCCUGUGCUACACAUCGUAUGUACCGAAUCAAAUUUUUUUAAACCCAAAUUUUUAAAAAAGUAUUAUGUUACGCCGUUCGGAUCUGCAC	-0.458
GCAGGAAGUAAAAACAAAUGGAAAUGCUUCGGAUAGUGGCAGGGGUGGGGGCUGCUAAGGAAAGGGUGGGAUGGGAGUGGGUAAAGAGUU	0.25
UAAUUUAGAUCUUAAAGAAAAAGUGGAGCCUGAGGUUCUCAGCACUGAUACCCAAACUUCCCCAGAGCCAGGCACAAGGAUGAACAUUCU	-0.512
AGUCCUGUGCUACACAUCGUAUGUACCGAAUCGGGUUUUUUUGGGAAAGGGAAAGGGAAAGUAUUAUGUUACGCCGUUCGGAUCUGCACU	-0.0233
GUCCUGUGCUACACAUCGUAUGUACCGAAUCGGGAAAGGGUUUUUUUGGGAAAAAGGGAAAGUAUUAUGUUACGCCGUUCGGAUCUGCAC	-0.376
UGGGAGGUGGAUUUUGUUCAUUUUUUUAGCUCAUUUCCAGGGGUGGGAAUUUUUUUUUAAUAUGUGUCAUGAAUAAAGUUGUUUUUGAAA	0.212
CCUGUGCUACACAUCGUAUGUACCGAAUCGGGAAAAAAAGGAAAAAAAGGGGAAAAAAAGGAAAGUAUUAUGUUACGCCGUUCGGAUCUG	-0.964
ACCAUGCAGGUGGGCAUCUUUGGGAAGUGGGGCAAGGGGGGGAUAGGGAGGGGGGUAACACUUUGGGAACAGGUGGUCCCAGGUCGUUAC	0.746
CAAGUCCUGUGCUACACAUCGUAUGUACCGAAUCGGUGGAAAAAGGUUUUUUUGGAAAGUAUUAUGUUACGCCGUUCGGAUCUGCACUUC	-0.739
UUUCUCCAUUGCAGGAAGUUGGCAGUAUCAUCGGAAAGGUAAGACAAUUUCACUUCAACUUCAAUUACCAUUUAGUAAUUCUGGAUUGAA	-0.939
CAAGUCCUGUGCUACACAUCGUAUGUACCGAAUCGGGCCCGGGGCCCGGGCCCGGAAAGUAUUAUGUUACGCCGUUCGGAUCUGCACUUC	-0.526
CAUCAAAAUAGCUACAAACCAUACUAAAUUAUUCCAUUUGCAACUUAUCCCCAACAGGUAUGUUCUAAAAAUAGUUUUUUUUUGUCAUUU	0.246
AGUCCUGUGCUACACAUCGUAUGUACCGAAUCGGGAAAAAAAGGGUGGGUUUUUGGGAAAGUAUUAUGUUACGCCGUUCGGAUCUGCACU	0.51
UGGGAGGUGGAUUUUGUUUAUUUUUUUAGCUCAUUCCCAGGGGUGGGAAUUUUUUUUUAAUAUGUGUCAUGAAUAAAGUUGUUUUUGAAA	-0.00764

Block 6
Target: Prothrombin, mature alpha-thrombin (F2, Homo sapiens, UniProt P00734)
Technique: aptamer microarray, sandwich
Molecule type: DNA with 2'F-ANA
Sample: in vitro
Tested at: 200 nM
Notes: whole 15-mer aptamer, many near background
Together with: Cy3 exosite-II aptamer, 400 nM
Direction: higher = stronger binding
Strand: GGTTGGTGTGGTTGG
Modification	mean fluorescence intensity [a.u.]
2'F-ANA at 6 7 8 10 11 12 13 14 15	119
2'F-ANA at 1 11 12 13 14 15	68.2
2'F-ANA at 1 2 4 5 6 7 9 12 15	89.5
2'F-ANA at 1 4 5 6 7 8 9 10 11 12	59.2
2'F-ANA at 1 2 3 4 5 9 10 12 13 14	48.5
2'F-ANA at 3 9 10 11 14 15	368
2'F-ANA at 1 6 8 9	198
2'F-ANA at 4 6 7 11 13 14 15	112
2'F-ANA at 2 3 4 5 7 13 14 15	49.4
2'F-ANA at 1 3 8 11 12 14	145
2'F-ANA at 1 2 7 9 10 13 14 15	44.1
2'F-ANA at 5 6 7 8 9 11 12 13 15	88.2
2'F-ANA at 1 5 6 7 9 11 14	48.3
2'F-ANA at 2 5 7 9 11 13 15	51
2'F-ANA at 1 3 8 11 12 15	518
2'F-ANA at 1 2 3 4 5 6 11 12 14 15	49.2
2'F-ANA at 3 4 5 7 12	214
2'F-ANA at 2 4 6 7 11 14 15	79.8
2'F-ANA at 2 3 4 5 6 7 8 10 11 12 14	47.1
2'F-ANA at 2 3 7 11 12 13	1010
2'F-ANA at 2 4 5 6 7 8 10 11 13	55.8

Block 7
Target: Interferon regulatory factor 5, full length, phosphomimetic (IRF5, Homo sapiens, UniProt Q13568-2, residues 1-514, S451D/S453D/S456D/S462D)
Technique: protein-binding microarray
Molecule type: double-stranded DNA, one strand shown
Sample: in vitro
Tested at: 940 nM top
Notes: 60-bp whole probe
Together with: salmon DNA 0.4 mg/ml
Relative to: random background probes
Direction: higher = stronger binding
All sequences stand within: GCCTAGCAC … GTCTTGATTCGCTTGACGCTGCTG
Strand	fitted relative affinity [z-score]
CCTTGTGTTACTTTCTACTTGTGCTAG	1.26
TTAGGTCTTCTACTGCTTTAGTGCTAG	0.125
TACGGACTGGGGTTTCGGGACGTGCTA	1.77
GACGATCTGGGGTATCGAGACGTGCTA	0.987
TCACATTCACCTGTCGTACTGTGCTAG	0.714
GACGATATCGGGACTGGAGAAGTGCTA	-0.15
GACGATTTCAGCCTGGAGACGTGCTAG	0.184
CTACGCCTGCAGGTGAGCCGGTGCTAG	-0.717
GACGGACTGCTACTGCTAACGTGCTAG	-0.695
GACGGACTGGGTCTCGGAACGTGCTAG	-0.0575
TCACCTCTGTAAGTCAGACTGTGCTAG	-0.198
TCAGTTTTCCTTCATGTACTGTGCTAG	1.43

Some of these lines once more (block 1):
Strand	E-score
GACATACC	0.0633
GTTTCAGA	-0.0118
CGTAGGCA	0.0517
ACGAGCGT	0.0704
ACCAATTA	-0.166
AATCAAAC	-0.14
CTACGTGC	0.00666
ACTGCCTC	0.0496
AATTTCCG	0.197
CGTAAGCC	0.153
ACCCCAGG	-0.0295
CAGGAAAG	-0.0437
ACGTCAAT	-0.00699
ACGTTAAG	-0.0482
ATGGATTG	-0.134
